Results pooled from the literature.
Protocols differ between the studies behind these lines. ± marks the error that the study gave.

For CC[C@H](C)[C@H](NC(=O)[C@H](CC(C)C)NC(=O)[C@H](Cc1c[nH]c2ccccc12)NC(=O)[C@H](CCC(N)=O)NC(=O)[C@@H](NC(=O)[C@H](Cc1ccccc1)NC(=O)[C@H](C)NC(=O)[C@H](CCCCNC(=O)COCCOCCNC(=O)COCCOCCNC(=O)CC[C@H](NC(=O)CCCCCCCCCCCCCCCCCCC(=O)O)C(=O)O)NC(=O)[C@H](CCC(N)=O)NC(=O)[C@H](C)NC(=O)[C@@H](NC(=O)[C@H](CCCCN)NC(=O)[C@H](CC(=O)O)NC(=O)[C@H](CC(C)C)NC(=O)C(C)(C)NC(=O)[C@@H](NC(=O)[C@H](CO)NC(=O)[C@H](Cc1ccc(O)cc1)NC(=O)[C@H](CC(=O)O)NC(=O)[C@H](CO)NC(=O)[C@@H](NC(=O)[C@H](Cc1ccccc1)NC(=O)[C@@H](NC(=O)CNC(=O)[C@H](CCC(=O)O)NC(=O)C(C)(C)NC(=O)[C@@H](N)Cc1ccc(O)cc1)[C@@H](C)O)[C@@H](C)O)[C@@H](C)CC)[C@@H](C)CC)C(C)C)C(=O)N[C@@H](C)C(=O)NCC(=O)NCC(=O)N1CCC[C@H]1C(=O)N[C@@H](CO)C(=O)N[C@@H](CO)C(=O)NCC(=O)N[C@@H](C)C(=O)N1CCC[C@H]1C(=O)N1CCC[C@H]1C(=O)N1CCC[C@H]1C(=O)N[C@@H](CO)C(N)=O, “treatment-emergent ADA positive subjects” read 16.7% (healthy subjects, single ascending dose; 2.5 mg, postbaseline).
With Nc1ncnc2c([C@@H]3N[C@H](CO)[C@@H](O)[C@H]3O)c[nH]c12 the inhibition was 0% (Zaire ebolavirus; viral replication, inhibitor; human Macrophage; 3.1 µM).
The AUC(0-tau) of Cn1cnc(Cn2c(=O)[nH]/c(=N\c3cc4cn(C)nc4cc3Cl)n(Cc3cc(F)c(F)cc3F)c2=O)n1 is reported as 997 µg·h/mL (healthy Japanese adults, plasma; oral, 250 mg, day 5, fasted, with prednisolone).
With CC(C)C(=O)OC[C@H]1O[C@@H](n2ccc(NO)nc2=O)[C@H](O)[C@@H]1O the remaining compound was 0% (rat plasma; 100 µM, 1 h, together with: digitonin 100 µM).
For C[C@@H]1Cc2c(Cl)cc(C(=O)N[C@H](Cc3ccccc3)C(=O)O)c(O)c2C(=O)O1, “body weight to egg weight ratio” read 72.3 ± 4 (chicken embryo; in ovo injection, 0.25 µg/egg).
Cc1cc(C)c(CNC(=O)c2cc(Cl)c3c(c2C)O[C@@](C)([C@H]2CC[C@H](N(C)C)CC2)O3)c(=O)[nH]1: “patients with TEAE” 0% (measured: COVID-19; human patients; oral, 200 mg once daily, 1 day onset day 14).
The Ki of COP(=S)(OC)Oc1ccc([N+](=O)[O-])c(C)c1 is reported as 226 ± 43.2 µM (rat CYP3A; midazolam 4-hydroxylation, non-competitive inhibitor; rat Sprague-Dawley, liver microsomes; 10 min, pH 7.4, together with: midazolam 15 to 214 µM).
For CC(C)(C)[C@H](NC(=O)C(F)(F)F)C(=O)N1C[C@H]2[C@@H]([C@H]1C(=O)N[C@H](C#N)C[C@@H]1CCNC1=O)C2(C)C, the unbound fraction was 0.824 (human liver microsomes; protein 1 mg/mL).
With CC(C)C[C@H](NC(=O)[C@H](CC(=O)O)NC(=O)CNC(=O)[C@H](CCCNC(=N)N)NC(=O)[C@H](CC(C)C)NC(=O)[C@H](CC(N)=O)NC(=O)[C@@H]1CCCN1C(=O)[C@@H](NC(=O)[C@H](C)NC(=O)[C@H](CC(N)=O)NC(=O)CCOCCOCCOCCOCCOCCOCCOCCOCCOCCOCCOCCOCCOCCOCCOCCOCCOCCOCCOCCOCCOCCOCCOCCOCCOCCOCCOCCOCCNC(=O)CCOCCOCCOCCOCCOCCOCCOCCOCCOCCOCCOCCOCCOCCOCCOCCOCCOCCOCCOCCOCCOCCOCCOCCOCCOCCOCCOCCOCCNC(=O)c1ccc(F)cc1)C(C)C)C(=O)N[C@@H](CCC(N)=O)C(=O)N[C@H](C(=O)N[C@@H](CC(C)C)C(=O)N[C@@H](C)C(=O)N[C@@H](CCC(N)=O)C(=O)N[C@@H](CCCCN)C(=O)N[C@H](C(=O)N[C@@H](C)C(=O)N[C@@H](CCCNC(=N)N)C(=O)N[C@H](C(N)=O)[C@@H](C)O)C(C)C)C(C)C [fluorine-18 labelled] the tissue uptake was 0.54 ± 0.08 %ID/g (male athymic nude mice, DX3puroβ6 xenograft, αvβ6-positive DX3puroβ6 tumour; intravenous, 4 h).
Under “COVID-19 pneumonia incidence”, Cc1cc(C)c(CNC(=O)c2cc(Cl)c3c(c2C)O[C@@](C)([C@H]2CC[C@H](N(C)C)CC2)O3)c(=O)[nH]1 is recorded as 0% (human, relapsed/refractory NHL; concentration not given, treatment-related TEAEs, grade 4).
Under “remaining fibrinogen γ chain”, CNC(=O)[C@@H](NC(=O)[C@H](CC(C)C)[C@H](O)C(=O)NO)C(C)(C)C is recorded as 0.99 (human fibrinogen; SDS-PAGE; Daboia russelii; concentration not given, unit not given, together with: GA venom; reference: untreated fibrinogen).
For CC(C)n1c(C2CCNCC2)nc2c([N+](=O)[O-])c(Br)c(Br)cc21, “AE leading to interruption” read 2% (patients with AML; 125 mg, test, SARS-CoV-2, positive).
For C[C@H]1CN(C(=O)CC#N)[C@]12CCN(c1ncnc3[nH]ccc13)C2, “subjects with positive SARS-CoV-2 test” read 0% (healthy human; oral, 6 mg single).
For O=C[C@H](C[C@@H]1CCNC1=O)NC(=O)[C@H](CC1CCCCC1)NC(=O)c1cc2ccccc2[nH]1, the AUC was 10.6 µg·h/mL (rats, plasma; intravenous, 16 mg/kg).
CC(C)(C)[C@H](NC(=O)C(F)(F)F)C(=O)N1C[C@H]2[C@@H]([C@H]1C(=O)N[C@H](C#N)C[C@@H]1CCNC1=O)C2(C)C — result for “participants with serious adverse events”: 0% (human, fasted; oral, 1500 mg single dose, 28 days, no ritonavir).
The Cmax of C[C@@H]1C[C@H]2[C@@H]3CCC4=CC(=O)C=C[C@]4(C)[C@@]3(F)[C@@H](O)C[C@]2(C)[C@@]1(O)C(=O)CO is reported as 660 nM (human, plasma; 20 mg).
Cc1cn([C@H]2O[C@@H](CO[P@@](=O)(N[C@@H](C)C(=O)OC(C)C)Oc3ccccc3)[C@H](O)[C@H]2F)c(=O)[nH]c1=O: “patients with TEAE” 17% (measured: COVID-19 infection; human; 50 mg).
For CC[C@H](C)[C@H](NC(=O)[C@H](CC(C)C)NC(=O)[C@H](Cc1c[nH]c2ccccc12)NC(=O)[C@H](CCC(N)=O)NC(=O)[C@@H](NC(=O)[C@H](Cc1ccccc1)NC(=O)[C@H](C)NC(=O)[C@H](CCCCNC(=O)COCCOCCNC(=O)COCCOCCNC(=O)CC[C@H](NC(=O)CCCCCCCCCCCCCCCCCCC(=O)O)C(=O)O)NC(=O)[C@H](CCC(N)=O)NC(=O)[C@H](C)NC(=O)[C@@H](NC(=O)[C@H](CCCCN)NC(=O)[C@H](CC(=O)O)NC(=O)[C@H](CC(C)C)NC(=O)C(C)(C)NC(=O)[C@@H](NC(=O)[C@H](CO)NC(=O)[C@H](Cc1ccc(O)cc1)NC(=O)[C@H](CC(=O)O)NC(=O)[C@H](CO)NC(=O)[C@@H](NC(=O)[C@H](Cc1ccccc1)NC(=O)[C@@H](NC(=O)CNC(=O)[C@H](CCC(=O)O)NC(=O)C(C)(C)NC(=O)[C@@H](N)Cc1ccc(O)cc1)[C@@H](C)O)[C@@H](C)O)[C@@H](C)CC)[C@@H](C)CC)C(C)C)C(=O)N[C@@H](C)C(=O)NCC(=O)NCC(=O)N1CCC[C@H]1C(=O)N[C@@H](CO)C(=O)N[C@@H](CO)C(=O)NCC(=O)N[C@@H](C)C(=O)N1CCC[C@H]1C(=O)N1CCC[C@H]1C(=O)N1CCC[C@H]1C(=O)N[C@@H](CO)C(N)=O, the Tmax was 24 h (human, plasma; subcutaneous, 15.0 mg once weekly, week 23, multiple doses).
Cn1cnc(Cn2c(=O)[nH]/c(=N\c3cc4cn(C)nc4cc3Cl)n(Cc3cc(F)c(F)cc3F)c2=O)n1 — result for “patients with TEAE”: 3.1% (human, mild severity, treatment-related TEAE; oral, 375 mg).
The COVID-19 incidence of C[C@@H]1COCCN1c1cc(C2([S@](C)(=N)=O)CC2)nc(-c2cc[nH]c3nccc2-3)n1 is reported as 16.7% (Japanese advanced solid tumour patients; oral, 160 mg twice daily, any grade).
The Cmax of Cc1ncc2n1-c1ccc(Cl)cc1C(c1ccccc1F)=NC2 is reported as 20.9 ng/mL (healthy male humans, plasma; oral, dose not given, phase I DDI study, together with: vericiguat).
With CC[C@H](C)[C@H](NC(=O)[C@H](CC(C)C)NC(=O)[C@H](Cc1c[nH]c2ccccc12)NC(=O)[C@H](CCC(N)=O)NC(=O)[C@@H](NC(=O)[C@H](Cc1ccccc1)NC(=O)[C@H](C)NC(=O)[C@H](CCCCNC(=O)COCCOCCNC(=O)COCCOCCNC(=O)CC[C@H](NC(=O)CCCCCCCCCCCCCCCCCCC(=O)O)C(=O)O)NC(=O)[C@H](CCC(N)=O)NC(=O)[C@H](C)NC(=O)[C@@H](NC(=O)[C@H](CCCCN)NC(=O)[C@H](CC(=O)O)NC(=O)[C@H](CC(C)C)NC(=O)C(C)(C)NC(=O)[C@@H](NC(=O)[C@H](CO)NC(=O)[C@H](Cc1ccc(O)cc1)NC(=O)[C@H](CC(=O)O)NC(=O)[C@H](CO)NC(=O)[C@@H](NC(=O)[C@H](Cc1ccccc1)NC(=O)[C@@H](NC(=O)CNC(=O)[C@H](CCC(=O)O)NC(=O)C(C)(C)NC(=O)[C@@H](N)Cc1ccc(O)cc1)[C@@H](C)O)[C@@H](C)O)[C@@H](C)CC)[C@@H](C)CC)C(C)C)C(=O)N[C@@H](C)C(=O)NCC(=O)NCC(=O)N1CCC[C@H]1C(=O)N[C@@H](CO)C(=O)N[C@@H](CO)C(=O)NCC(=O)N[C@@H](C)C(=O)N1CCC[C@H]1C(=O)N1CCC[C@H]1C(=O)N1CCC[C@H]1C(=O)N[C@@H](CO)C(N)=O the half-life was 121 h (human, normal renal function, plasma; subcutaneous, 5 mg single dose, geometric mean).

Excerpt of the above:
With CC(C)C(=O)OC[C@H]1O[C@@H](n2ccc(NO)nc2=O)[C@H](O)[C@@H]1O the remaining compound was 0% (rat plasma; 100 µM, 1 h, together with: digitonin 100 µM).
For CC(C)n1c(C2CCNCC2)nc2c([N+](=O)[O-])c(Br)c(Br)cc21, “AE leading to interruption” read 2% (patients with AML; 125 mg, test, SARS-CoV-2, positive).
